Measured values gathered from unrelated publications.
Compare with care: the assays were run in different laboratories. Numbers after ± are the reported error.

Under “brain concentration over EC50”, `N=C(N)NCCCCCCN1CCC23c4c5ccc(O)c4OC2c2nc4ccccc4cc2CC3(O)C1C5` (stereo not shown) is recorded as over 100 fold (delta opioid receptor; CD-1 mice, male, brain; subcutaneous, 30 mg/kg, 80 min).
`COc1ccc(CNc2nc(N3CCC[C@H]3CO)ncc2C(=O)NN)cc1Cl` has a revertant count of 274 ± 8 (Salmonella typhimurium; TA102; 500 µg/plate).
`C[C@@](O)(C(F)F)[C@H](NC(=O)c1ccc(C#CC#CC2CC2)cc1)C(=O)NO` has an AUC(0-inf) of 18.2 ± 3.7 µg·h/mL (CD-1 mouse; oral, 40 mg/kg, fasted).
`CN(C)CCNC(=O)/C=C/[C@H](Cc1ccccc1)Nc1ccnc2cc(Cl)ccc12` gave a selectivity index of 344 (Plasmodium falciparum; Vero, K1 chloroquine-resistant; baseline: Vero CC50 over parasite IC50).
The tracer uptake of `O=C(O)CCC(NP(=O)(O)OCCC[C@@H](NC(=O)CCC(NC(=O)CCCCCNC(=O)CCCCCNC(=O)c1ccc([18F])cc1)C(=O)O)C(=O)O)C(=O)O` (stereo partly shown) is reported as 0.11 %ID/g (CWR22Rv1 tumour model; host not given, lung; intravenous, 2 h, tumour-bearing).
Under “minimum haemolytic concentration”, `CCCCCCCC(=O)NCC(=O)N[C@@H](CC(C)C)C(=O)N[C@@H](CC(C)C)C(=O)N[C@@H](CCCCN)C(=O)N[C@@H](CCCNC(=N)N)C(=O)N[C@H](C(=O)N[C@@H](CCCCN)C(=O)N[C@H](C(=O)N[C@@H](CC(C)C)C(=O)N[C@@H](CC(C)C)C(N)=O)[C@@H](C)O)[C@@H](C)CC` is recorded as 211 µM (human erythrocytes; 1 h, 37 °C, 10% haemolysis).
`CN(C)CC1CCCCC1(O)c1cccc(O)c1` (stereo not shown) — result for “Papp B to A”: 21.2 ± 0.6 ×10⁻⁶ cm/s (P-glycoprotein; Caco-2 TC7; 1 µM, 3 h, pH 6.8 apical, 7.4 basolateral, with: cyclosporin A 10 µM).
The haemolysis of `CC(C)[C@H](NC(=O)[C@H](CCCCN)NC(=O)[C@H](CCCNC(=N)N)NC(=O)CNC(=O)[C@H](C)NC(=O)[C@H](CC(N)=O)NC(=O)[C@H](CCCNC(=N)N)NC(=O)[C@@H](NC(=O)[C@H](CCCCN)NC(=O)[C@H](CC(=O)O)NC(=O)[C@@H](NC(=O)[C@@H](NC(=O)[C@H](CCCNC(=N)N)NC(=O)[C@H](CCCNC(=N)N)NC(=O)[C@H](Cc1c[nH]c2ccccc12)NC(=O)[C@H](Cc1c[nH]c2ccccc12)NC(=O)CN)[C@@H](C)O)C(C)C)C(C)C)C(=O)O` is reported as under 2% (sheep red blood cells; 512 µg/mL, 1 h, 37 °C; baseline: Triton X-100).
For `COc1ccc(CNc2nc(N3CCC[C@H]3CO)ncc2C(=O)NNC(=O)c2cnc(N3CCC[C@H]3CO)nc2NCc2ccc(OC)c(Cl)c2)cc1Cl`, the revertant count was 31 ± 5 (Salmonella typhimurium; TA98; 1000 µg/plate, 48 h, with: rat liver S9).
`CC[C@H](C)[C@H](NC(=O)[C@H](CCCNC(=N)N)NC(=O)[C@H](CCCCN)NC(=O)[C@H](CC(C)C)NC(=O)[C@H](CC(C)C)NC(=O)CN)C(=O)N[C@@H](CCCCN)C(=O)N[C@H](C(=O)N[C@@H](CC(C)C)C(=O)N[C@@H](CC(C)C)C(=O)NCCCC[C@H](NC(=O)[C@H](CCCCNC(=O)[C@H](CC(C)C)NC(=O)[C@H](CC(C)C)NC(=O)[C@@H](NC(=O)[C@H](CCCCN)NC(=O)[C@@H](NC(=O)[C@H](CCCNC(=N)N)NC(=O)[C@H](CCCCN)NC(=O)[C@H](CC(C)C)NC(=O)[C@H](CC(C)C)NC(=O)CN)[C@@H](C)CC)[C@@H](C)O)NC(=O)[C@H](CC(C)C)NC(=O)[C@H](CC(C)C)NC(=O)[C@@H](NC(=O)[C@H](CCCCN)NC(=O)[C@@H](NC(=O)[C@H](CCCNC(=N)N)NC(=O)[C@H](CCCCN)NC(=O)[C@H](CC(C)C)NC(=O)[C@H](CC(C)C)NC(=O)CN)[C@@H](C)CC)[C@@H](C)O)C(N)=O)[C@@H](C)O`: “minimum haemolytic concentration” 2.53 µM (human erythrocytes; 1 h, 37 °C, 10% haemolysis).
`C[C@]12CC[C@H](OCC[18F])C[C@H]1CC[C@@H]1[C@@H]2CC[C@]2(C)[C@@H](c3ccc(=O)oc3)CC[C@]12O` has a tracer uptake of 4.38 %ID/g (SMMC-7721 tumour model; nude, tumour; intravenous, 7.4 MBq, 35 min, tumour-bearing).
`O=C(O)CCC(NP(=O)(O)OCCC[C@@H](NC(=O)CCC(NC(=O)CCCCCNC(=O)c1ccc([18F])cc1)C(=O)O)C(=O)O)C(=O)O` (stereo partly shown) gave a tracer uptake of 0.34 %ID/g (CWR22Rv1 tumour model; host not given, heart; intravenous, 1 h, tumour-bearing).
For `COc1cc(C(=O)NCCOCCOCCOCCNC(=O)c2ccc([18F])nc2)ccc1NC(=O)C1NC(CC(C)(C)C)C(C#N)(c2ccc(Cl)cc2F)C1c1cccc(Cl)c1F` (stereo not shown), the tracer uptake was 2.07 %ID/g (HepG2 tumour model; host not given, tumour; 2 h, tumour-bearing).
With `CN[C@](C)(C[18F])C(=O)O` the tracer uptake was 1.2 %ID/g (DU-145 tumour model; host not given, muscle; 1 h, tumour-bearing).
With `Cc1nc([C@H](NC(=O)c2ccc(-c3ccc(Cl)cc3)[nH]2)[C@@H]2CCCCN2)sc1CO` the CC50 was about 30 µM (U87/CD4/CCR5; cell growth or viability, XTT).
For `CCCC(=O)NCC(=O)N[C@@H](CC(C)C)C(=O)N[C@@H](CC(C)C)C(=O)N[C@@H](CCCCN)C(=O)N[C@@H](CCCNC(=N)N)C(=O)N[C@H](C(=O)N[C@@H](CCCCN)C(=O)N[C@H](C(=O)N[C@@H](CC(C)C)C(=O)N[C@@H](CC(C)C)C(=O)NCCCC[C@H](NC(=O)[C@H](CC(C)C)NC(=O)[C@H](CC(C)C)NC(=O)[C@@H](NC(=O)[C@H](CCCCN)NC(=O)[C@@H](NC(=O)[C@H](CCCNC(=N)N)NC(=O)[C@H](CCCCN)NC(=O)[C@H](CC(C)C)NC(=O)[C@H](CC(C)C)NC(=O)CNC(=O)CCC)[C@@H](C)CC)[C@@H](C)O)C(N)=O)[C@@H](C)O)[C@@H](C)CC`, “minimum haemolytic concentration” read 27.6 µM (human erythrocytes; 1 h, 37 °C, 10% haemolysis).
`CCC(=O)N(C)c1ccc(Cl)c(Cl)c1` has a revertant colonies of 0 revertants/plate (Salmonella typhimurium; Ames test; TA1535; 5.00 mg/plate, with rat liver S9).
Under “minimum haemolytic concentration”, `CCCCCCCCCC(=O)NCC(=O)N[C@@H](CC(C)C)C(=O)N[C@@H](CC(C)C)C(=O)N[C@@H](CCCCN)C(=O)N[C@@H](CCCNC(=N)N)C(=O)N[C@H](C(=O)N[C@@H](CCCCN)C(=O)N[C@H](C(=O)N[C@@H](CC(C)C)C(=O)N[C@@H](CC(C)C)C(=O)NCCCC[C@H](NC(=O)[C@H](CCCCNC(=O)[C@H](CC(C)C)NC(=O)[C@H](CC(C)C)NC(=O)[C@@H](NC(=O)[C@H](CCCCN)NC(=O)[C@@H](NC(=O)[C@H](CCCNC(=N)N)NC(=O)[C@H](CCCCN)NC(=O)[C@H](CC(C)C)NC(=O)[C@H](CC(C)C)NC(=O)CNC(=O)CCCCCCCCC)[C@@H](C)CC)[C@@H](C)O)NC(=O)[C@H](CC(C)C)NC(=O)[C@H](CC(C)C)NC(=O)[C@@H](NC(=O)[C@H](CCCCN)NC(=O)[C@@H](NC(=O)[C@H](CCCNC(=N)N)NC(=O)[C@H](CCCCN)NC(=O)[C@H](CC(C)C)NC(=O)[C@H](CC(C)C)NC(=O)CNC(=O)CCCCCCCCC)[C@@H](C)CC)[C@@H](C)O)C(N)=O)[C@@H](C)O)[C@@H](C)CC` is recorded as 147 µM (human erythrocytes; 1 h, 37 °C, 10% haemolysis).
With `CC[C@H](C)[C@H](NC(=O)CNC(=O)[C@H](CC(=O)O)NC(=O)[C@H](CCCNC(=N)N)NC(=O)[C@@H](NC(=O)[C@H](CC(N)=O)NC(=O)[C@H](CCC(N)=O)NC(=O)CNC(=O)[C@@H](NC(=O)[C@H](CCCCN)NC(=O)[C@H](CCC(=O)O)NC(=O)[C@@H](NC(=O)[C@H](CCCCN)NC(=O)[C@H](CCCCN)NC(=O)[C@H](Cc1ccccc1)NC(=O)[C@H](CC(C)C)NC(=O)[C@H](CCCCN)NC(=O)[C@H](Cc1c[nH]c2ccccc12)NC(=O)[C@@H](N)CCCCN)[C@@H](C)CC)C(C)C)[C@@H](C)CC)C(=O)N[C@H](C(=O)N[C@@H](CCCCN)C(=O)N[C@@H](C)C(=O)NCC(=O)N1CCC[C@H]1C(=O)N[C@@H](C)C(=O)N[C@H](C(=O)N[C@@H](C)C(=O)N[C@H](C(=O)N[C@H](C(=O)NCC(=O)N[C@@H](CCC(N)=O)C(=O)N[C@@H](C)C(=O)N[C@H](C(=O)N[C@@H](CCC(N)=O)C(=O)N[C@H](C(=O)N[C@@H](C)C(=O)N[C@@H](CCCCN)C(N)=O)[C@@H](C)CC)[C@@H](C)O)C(C)C)C(C)C)C(C)C)[C@@H](C)CC` the helicity was 63% (circular dichroism; POPC vesicles 5 mM; 20 µM, fully membrane bound).

Excerpt of the above:
For `CCCC(=O)NCC(=O)N[C@@H](CC(C)C)C(=O)N[C@@H](CC(C)C)C(=O)N[C@@H](CCCCN)C(=O)N[C@@H](CCCNC(=N)N)C(=O)N[C@H](C(=O)N[C@@H](CCCCN)C(=O)N[C@H](C(=O)N[C@@H](CC(C)C)C(=O)N[C@@H](CC(C)C)C(=O)NCCCC[C@H](NC(=O)[C@H](CC(C)C)NC(=O)[C@H](CC(C)C)NC(=O)[C@@H](NC(=O)[C@H](CCCCN)NC(=O)[C@@H](NC(=O)[C@H](CCCNC(=N)N)NC(=O)[C@H](CCCCN)NC(=O)[C@H](CC(C)C)NC(=O)[C@H](CC(C)C)NC(=O)CNC(=O)CCC)[C@@H](C)CC)[C@@H](C)O)C(N)=O)[C@@H](C)O)[C@@H](C)CC`, “minimum haemolytic concentration” read 27.6 µM (human erythrocytes; 1 h, 37 °C, 10% haemolysis).
